Published values of several laboratories.
Numbered parts are unrelated; each lists some results of a single study.

Study 1 — method: RNA Bind-n-Seq; molecule type: RNA; medium: in vitro; concentration: 365 nM; relative to: no-protein control; reading: higher = stronger binding
Target: RNA binding protein fox-1 homolog 2, RRM domain, GST-SBP tag (RBFOX2, Homo sapiens, UniProt O43251-10, residues 100-194)
Setting: natural RNA segment, single round, ends assumed
All sequences stand within: GGGAGUUCUACAGUCCGACGAUC … UGGAAUUCUCGGGUGCCAA
Target sequence (chain): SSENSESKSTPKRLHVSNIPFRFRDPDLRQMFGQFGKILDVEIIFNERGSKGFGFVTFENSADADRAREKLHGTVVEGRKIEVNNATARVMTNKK
For `UGGGGACACAGAUUUUCAUAGUUUCCAUUUUUGGGGGGCUUAAGGAUUUUUUUUUUUUCUGUUUGAAACAGUUUUAUACUUUCUGAUAUAGUACUUGAAAUUCUUACCAG`, “RBNS enrichment (R)” read 0.636.
For `UGCGCAGAACCCACCCCACCCCCCAGUGCAGACUUCGGGGUCUCCACCCCAGGCCAGCAGCGCCCACUGGGCUACAGCAAGCCAACAGGUCACAGAAGCCAACGAGGGGA`, “RBNS enrichment (R)” read 0.204.
`CAUGUCUAUUUACAUAGUGAAGGUCCAGAAUAAAUGAAAUAAUUUUGCUACCUUGGUGUUGAAACAUAAACUGUGCCGUUGAUAGACCUAGGUAGAAUAGUAGGAUGGCA` — result for “RBNS enrichment (R)”: 0.696.
Under “RBNS enrichment (R)”, `UCUGUACAAACUUUGGGCCCGAUUCAUAAGAAAAAGAAGUUUGCUAUUAACACGGGAUUUUUUUAAUAUACUUUUUUUGGUCUAAAUUUGAAAUUACUUGCUUCCCAAAU` is recorded as 1.06.
Under “RBNS enrichment (R)”, `UGGGCAUCACCACCCUUGUUUGAUCUGCCUUGGAUUUCCUCUUGGAGCUUAUGUGCAGAUAGAGGUUGUACUUGGUAAGAUUUCUAAUGUGUUCUAUGGGUUUCAAUUCU` is recorded as 0.308.
`CCUGCCCCACACAGGUCACGCUGGCAAGGCGAUGACCAGUUUCCGAAACGCUGGAUCCCCAAGGGUACAGUGUGGCCCAGUCCUCCCCCACCUCCAUGGUGGCCCAGGCU` — result for “RBNS enrichment (R)”: 0.204.

Study 2 — method: universal PBM; molecule type: double-stranded DNA, one strand shown; medium: in vitro; concentration: 600 nM; reading: higher = stronger binding
Target: Sal-like protein 4, full length isoform A (SALL4, Homo sapiens, UniProt Q9UJQ4, residues 1-1053)
Chain of UniProt Q9UJQ4 (whole entry, looked up): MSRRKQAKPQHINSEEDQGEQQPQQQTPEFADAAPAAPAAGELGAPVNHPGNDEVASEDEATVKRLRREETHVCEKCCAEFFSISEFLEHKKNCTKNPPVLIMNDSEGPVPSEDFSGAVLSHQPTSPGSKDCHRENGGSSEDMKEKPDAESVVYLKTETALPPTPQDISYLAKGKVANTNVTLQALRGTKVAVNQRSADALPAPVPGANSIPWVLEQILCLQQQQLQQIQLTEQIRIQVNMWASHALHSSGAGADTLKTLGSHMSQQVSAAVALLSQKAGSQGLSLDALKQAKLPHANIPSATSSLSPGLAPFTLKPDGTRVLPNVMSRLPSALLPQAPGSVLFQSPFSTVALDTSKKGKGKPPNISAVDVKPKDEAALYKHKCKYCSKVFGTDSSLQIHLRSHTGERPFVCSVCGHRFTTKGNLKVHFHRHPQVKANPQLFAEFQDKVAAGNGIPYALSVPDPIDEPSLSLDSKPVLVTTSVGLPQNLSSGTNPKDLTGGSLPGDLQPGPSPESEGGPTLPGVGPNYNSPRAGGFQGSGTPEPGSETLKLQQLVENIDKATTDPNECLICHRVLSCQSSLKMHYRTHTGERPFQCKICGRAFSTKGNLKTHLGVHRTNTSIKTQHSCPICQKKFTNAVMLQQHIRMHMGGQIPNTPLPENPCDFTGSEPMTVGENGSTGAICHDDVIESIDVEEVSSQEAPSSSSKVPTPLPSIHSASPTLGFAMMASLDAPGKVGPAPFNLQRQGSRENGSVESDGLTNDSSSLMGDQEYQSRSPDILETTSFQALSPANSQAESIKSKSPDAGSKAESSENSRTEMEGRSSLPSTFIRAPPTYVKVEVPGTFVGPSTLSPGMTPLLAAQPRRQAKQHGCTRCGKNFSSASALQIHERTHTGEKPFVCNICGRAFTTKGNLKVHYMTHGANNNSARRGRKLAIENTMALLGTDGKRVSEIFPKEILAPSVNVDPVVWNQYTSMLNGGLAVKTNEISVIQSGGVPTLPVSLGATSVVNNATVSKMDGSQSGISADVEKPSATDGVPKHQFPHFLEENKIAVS
Setting: 8-mer, flanks averaged, mean of replicates
The E-score of `CAAGCATG` is reported as 0.0209.
With `CCGCGCAA` the E-score was -0.137.
With `CACGTGGA` the E-score was -0.0176.
`GAGGCGAA` has an E-score of -0.187.
For `GGAGTGAA`, the E-score was 0.0613.
`ACAGTTGC` has an E-score of 0.0104.
With `ATCTGAGA` the E-score was 0.0239.

Study 3 — method: protein-binding microarray; molecule type: double-stranded DNA, one strand shown; medium: in vitro; concentration: 940 nM top; setting: 60-bp whole probe; added: salmon DNA 0.4 mg/ml; relative to: random background probes; reading: higher = stronger binding
Target: Interferon regulatory factor 5, full length, phosphomimetic (IRF5, Homo sapiens, UniProt Q13568-2, residues 1-514, S451D/S453D/S456D/S462D)
All sequences stand within: GCCTAGCAC … GTGCTAGGTCTTGATTCGCTTGACGCTGCTG
For `TTAGGTCTCGGACTAGGTTA`, “fitted relative affinity” read 1.05 z-score.
Under “fitted relative affinity”, `TTCTTGCGGAGTTTCTTGCA` is recorded as 0.112 z-score.
`TTAGGTTTCGGTTTCTGTTA`: “fitted relative affinity” 15.1 z-score.
For `TTAGGTCTCCTTATCCTTTG`, “fitted relative affinity” read 0.448 z-score.
Under “fitted relative affinity”, `GACGGTTTCGGTTCCCGGAC` is recorded as 15.6 z-score.
For `TCACTTCTCCATTTTTCACT`, “fitted relative affinity” read 1.77 z-score.
Under “fitted relative affinity”, `TTAGGCCTGCTTATCCTTTA` is recorded as -0.0513 z-score.

Mixed results
`PhoQ, residues 284 288 289 292 302 303 SSCLAV` gave a fold induction of 3.02 (PhoP, residues 12 14 15 18 19 AWHSL (Escherichia coli, UniProt P23836); Sort-seq, item: YFP reporter; E. coli; PhoQ-PhoP variant library, added: 10 µM Mg2+; relative to: high Mg2+ state, higher = stronger signaling).

For quick reference, copied from above (study 1):
Under “RBNS enrichment (R)”, `UGGGCAUCACCACCCUUGUUUGAUCUGCCUUGGAUUUCCUCUUGGAGCUUAUGUGCAGAUAGAGGUUGUACUUGGUAAGAUUUCUAAUGUGUUCUAUGGGUUUCAAUUCU` is recorded as 0.308.
For `UGCGCAGAACCCACCCCACCCCCCAGUGCAGACUUCGGGGUCUCCACCCCAGGCCAGCAGCGCCCACUGGGCUACAGCAAGCCAACAGGUCACAGAAGCCAACGAGGGGA`, “RBNS enrichment (R)” read 0.204.
